Results from different studies.
Each line is one published result; not all experiments were run side by side.
Cell line: MDA-MB-231

Structure (SMILES)	assay	setting	inhibition [%]
COc1ccc(SCC(=O)c2ccc(O)cc2O)cc1	cell growth or viability, MTT	100 µM, 48 h	98
Cn1nc(-c2cccc(O)c2)c2c(N)ncnc21	cell viability, MTT	10 µM, 72 h	26
COc1ccc2c(c1)/C(=N\Nc1nnc3n1N=C(c1ccccc1)CS3)C(=O)N2	cell growth or viability, SRB	10 µM	23
C/C(=N\N(c1ccccc1)c1ccccc1)c1ccc(O)cc1	cell growth or viability, MTT	100 µM, 48 h	99
FC(F)(F)c1cnc2[nH]cc(Cc3cccc(Cl)c3)c2c1	cell growth or viability	10 µM, 72 h	6.1
C[C@@H]1O[C@@H](OC(=O)/C=C/c2ccc(O)cc2)[C@H](OC(=O)/C=C/c2ccc(O)cc2)[C@H](O)[C@H]1O	cell growth or viability, MTT	10 µM	55
COc1ccc(C2=Nn3c(NN=C4C(=O)N(Cc5ccccc5)c5ccc(Cl)cc54)nnc3SC2)cc1	cell growth or viability, SRB	10 µM	13
COc1cccc(Cc2c[nH]c3ncccc23)c1	cell growth or viability	10 µM, 72 h	8
Clc1ccc2ccc3[n+](c2c1)[Ir-3]12([c]4ccccc4-3)([c]3ccccc3-c3ccc4ccc(Cl)cc4[n+]31)[n+]1ccccc1-c1cccc[n+]12.F[P-](F)(F)(F)(F)F	cell migration, Transwell	0.3 µM, 24 h	80
OC(c1ccc(Cl)c(C(F)(F)F)c1)c1c[nH]c2ncc(C(F)(F)F)cc12 (centres unmarked)	cell growth or viability	10 µM, 72 h	15
Nc1ccc(Oc2c(F)c(F)c(Oc3ccc(N)cc3)c(F)c2F)cc1	cell growth or viability, MTT	100 µM, 48 h	44

For quick reference, copied from above:
Structure (SMILES)	assay	setting	inhibition [%]
Cn1nc(-c2cccc(O)c2)c2c(N)ncnc21	cell viability, MTT	10 µM, 72 h	26
C/C(=N\N(c1ccccc1)c1ccccc1)c1ccc(O)cc1	cell growth or viability, MTT	100 µM, 48 h	99
